# Assay results pooled from the literature.
# Protocols differ between the studies behind these lines. Numbers after ± are the reported error.
# Chain of UniProt P78417 (whole entry, looked up): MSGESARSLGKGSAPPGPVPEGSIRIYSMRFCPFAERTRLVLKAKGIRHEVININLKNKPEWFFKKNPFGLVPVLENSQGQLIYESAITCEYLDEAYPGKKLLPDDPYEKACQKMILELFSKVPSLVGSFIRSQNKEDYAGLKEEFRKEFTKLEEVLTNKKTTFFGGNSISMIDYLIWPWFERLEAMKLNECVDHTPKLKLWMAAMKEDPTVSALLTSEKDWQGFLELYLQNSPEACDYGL
# Chain of UniProt Q15691 (whole entry, looked up): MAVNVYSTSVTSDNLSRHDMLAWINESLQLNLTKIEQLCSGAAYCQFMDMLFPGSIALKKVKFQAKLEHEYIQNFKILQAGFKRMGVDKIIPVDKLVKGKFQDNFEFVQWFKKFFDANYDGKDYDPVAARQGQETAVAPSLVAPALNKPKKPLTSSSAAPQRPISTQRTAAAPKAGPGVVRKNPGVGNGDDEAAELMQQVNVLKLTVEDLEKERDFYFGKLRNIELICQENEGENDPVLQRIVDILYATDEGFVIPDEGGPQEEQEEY
# Chain of UniProt P01024 (whole entry, unmodified, looked up): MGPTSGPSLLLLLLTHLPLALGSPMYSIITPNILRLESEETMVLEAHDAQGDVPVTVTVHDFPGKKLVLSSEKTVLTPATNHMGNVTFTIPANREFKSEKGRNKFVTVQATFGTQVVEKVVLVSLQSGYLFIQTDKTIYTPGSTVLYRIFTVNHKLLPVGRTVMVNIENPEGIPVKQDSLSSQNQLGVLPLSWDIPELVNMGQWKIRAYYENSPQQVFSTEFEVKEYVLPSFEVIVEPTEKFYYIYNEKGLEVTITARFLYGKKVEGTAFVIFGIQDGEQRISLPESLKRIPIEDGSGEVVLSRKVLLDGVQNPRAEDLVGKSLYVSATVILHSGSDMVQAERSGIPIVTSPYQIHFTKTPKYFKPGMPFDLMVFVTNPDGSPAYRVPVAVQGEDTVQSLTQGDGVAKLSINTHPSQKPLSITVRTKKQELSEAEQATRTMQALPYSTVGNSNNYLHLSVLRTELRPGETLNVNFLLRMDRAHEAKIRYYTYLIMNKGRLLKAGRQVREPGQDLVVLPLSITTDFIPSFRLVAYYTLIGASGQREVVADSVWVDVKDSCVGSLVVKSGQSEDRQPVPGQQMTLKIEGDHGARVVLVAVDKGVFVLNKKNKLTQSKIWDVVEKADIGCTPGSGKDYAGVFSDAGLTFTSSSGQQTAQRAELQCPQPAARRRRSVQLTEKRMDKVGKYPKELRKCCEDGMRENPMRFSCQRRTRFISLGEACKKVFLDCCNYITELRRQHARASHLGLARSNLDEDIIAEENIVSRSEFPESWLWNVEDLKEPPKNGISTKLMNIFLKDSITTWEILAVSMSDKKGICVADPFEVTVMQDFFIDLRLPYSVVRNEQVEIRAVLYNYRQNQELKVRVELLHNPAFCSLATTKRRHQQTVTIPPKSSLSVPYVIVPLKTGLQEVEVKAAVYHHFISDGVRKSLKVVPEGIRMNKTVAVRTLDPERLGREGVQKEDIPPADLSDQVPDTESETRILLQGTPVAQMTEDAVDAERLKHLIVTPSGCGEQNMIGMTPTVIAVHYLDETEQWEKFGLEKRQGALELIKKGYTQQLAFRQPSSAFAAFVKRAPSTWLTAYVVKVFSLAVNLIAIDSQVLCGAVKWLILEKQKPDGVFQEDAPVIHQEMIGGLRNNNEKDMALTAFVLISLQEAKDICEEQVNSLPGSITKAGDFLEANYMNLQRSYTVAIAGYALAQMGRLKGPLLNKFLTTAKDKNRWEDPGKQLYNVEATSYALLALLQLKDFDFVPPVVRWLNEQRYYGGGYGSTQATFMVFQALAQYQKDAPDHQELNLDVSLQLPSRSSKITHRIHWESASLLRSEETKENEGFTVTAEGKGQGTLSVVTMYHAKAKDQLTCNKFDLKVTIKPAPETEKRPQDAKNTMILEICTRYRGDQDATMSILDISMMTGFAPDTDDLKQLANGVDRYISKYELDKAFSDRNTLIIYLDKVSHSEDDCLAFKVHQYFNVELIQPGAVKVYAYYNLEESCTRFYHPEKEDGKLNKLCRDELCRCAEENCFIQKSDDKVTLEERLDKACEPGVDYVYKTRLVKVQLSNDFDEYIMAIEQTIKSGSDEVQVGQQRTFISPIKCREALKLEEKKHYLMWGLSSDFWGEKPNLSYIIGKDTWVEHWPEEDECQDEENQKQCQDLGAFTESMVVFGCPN
# Chain of UniProt Q05097 (whole entry, looked up): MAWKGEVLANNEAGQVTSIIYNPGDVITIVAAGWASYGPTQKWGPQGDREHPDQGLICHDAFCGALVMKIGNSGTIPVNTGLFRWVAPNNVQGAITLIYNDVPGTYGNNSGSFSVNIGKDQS
# Chain of UniProt P16662 (whole entry, looked up): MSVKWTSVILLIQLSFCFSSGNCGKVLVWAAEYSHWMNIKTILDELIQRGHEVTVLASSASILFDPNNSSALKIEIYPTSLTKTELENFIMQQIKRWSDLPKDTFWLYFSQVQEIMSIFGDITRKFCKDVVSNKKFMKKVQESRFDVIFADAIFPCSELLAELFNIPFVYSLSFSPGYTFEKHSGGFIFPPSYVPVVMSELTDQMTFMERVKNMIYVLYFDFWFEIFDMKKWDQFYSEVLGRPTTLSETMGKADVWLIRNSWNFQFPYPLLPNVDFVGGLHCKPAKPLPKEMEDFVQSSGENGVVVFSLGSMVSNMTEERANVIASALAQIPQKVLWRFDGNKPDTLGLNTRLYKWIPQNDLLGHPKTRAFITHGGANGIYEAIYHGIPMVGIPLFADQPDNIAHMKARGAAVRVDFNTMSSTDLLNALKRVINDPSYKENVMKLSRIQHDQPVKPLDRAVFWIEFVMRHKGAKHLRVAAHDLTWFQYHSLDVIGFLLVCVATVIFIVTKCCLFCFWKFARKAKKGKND
# Chain of UniProt P62942 (whole entry, looked up): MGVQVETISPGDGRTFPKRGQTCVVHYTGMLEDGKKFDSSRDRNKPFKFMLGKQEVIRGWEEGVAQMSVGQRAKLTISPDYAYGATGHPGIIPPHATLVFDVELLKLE
# Chain of UniProt Q8NB78 (whole entry, looked up): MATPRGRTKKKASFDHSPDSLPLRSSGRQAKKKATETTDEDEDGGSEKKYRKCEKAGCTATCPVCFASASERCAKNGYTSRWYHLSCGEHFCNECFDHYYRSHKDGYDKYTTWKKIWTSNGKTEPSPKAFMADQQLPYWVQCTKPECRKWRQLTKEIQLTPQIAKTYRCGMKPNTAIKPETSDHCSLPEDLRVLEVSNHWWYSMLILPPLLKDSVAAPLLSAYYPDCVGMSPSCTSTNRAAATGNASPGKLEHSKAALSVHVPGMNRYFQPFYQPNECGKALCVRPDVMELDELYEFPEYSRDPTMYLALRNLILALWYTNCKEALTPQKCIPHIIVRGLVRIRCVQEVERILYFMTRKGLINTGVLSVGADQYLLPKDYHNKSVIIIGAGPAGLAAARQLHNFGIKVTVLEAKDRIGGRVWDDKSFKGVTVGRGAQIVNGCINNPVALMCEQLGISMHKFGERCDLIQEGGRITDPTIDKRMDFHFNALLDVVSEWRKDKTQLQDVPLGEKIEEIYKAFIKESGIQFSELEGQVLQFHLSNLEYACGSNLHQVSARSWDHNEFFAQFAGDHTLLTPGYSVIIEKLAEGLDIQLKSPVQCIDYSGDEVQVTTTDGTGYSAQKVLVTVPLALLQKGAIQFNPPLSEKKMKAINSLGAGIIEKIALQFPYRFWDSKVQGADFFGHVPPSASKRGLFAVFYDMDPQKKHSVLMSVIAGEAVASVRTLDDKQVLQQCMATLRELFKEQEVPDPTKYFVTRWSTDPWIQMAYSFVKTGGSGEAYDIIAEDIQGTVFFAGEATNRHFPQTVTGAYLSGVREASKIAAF
# Chain of UniProt P30559 (whole entry, looked up): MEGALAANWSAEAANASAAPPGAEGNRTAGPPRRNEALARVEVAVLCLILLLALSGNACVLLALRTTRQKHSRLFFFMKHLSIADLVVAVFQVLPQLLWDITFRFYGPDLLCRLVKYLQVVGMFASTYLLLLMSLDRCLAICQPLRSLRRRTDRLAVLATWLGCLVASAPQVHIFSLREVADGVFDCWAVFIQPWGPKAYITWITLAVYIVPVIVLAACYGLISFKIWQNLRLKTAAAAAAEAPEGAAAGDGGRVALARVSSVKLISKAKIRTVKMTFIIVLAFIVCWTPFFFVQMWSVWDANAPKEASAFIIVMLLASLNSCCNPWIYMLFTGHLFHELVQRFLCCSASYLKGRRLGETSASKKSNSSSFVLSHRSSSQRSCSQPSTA
# Chain of UniProt P28074 (whole entry, looked up): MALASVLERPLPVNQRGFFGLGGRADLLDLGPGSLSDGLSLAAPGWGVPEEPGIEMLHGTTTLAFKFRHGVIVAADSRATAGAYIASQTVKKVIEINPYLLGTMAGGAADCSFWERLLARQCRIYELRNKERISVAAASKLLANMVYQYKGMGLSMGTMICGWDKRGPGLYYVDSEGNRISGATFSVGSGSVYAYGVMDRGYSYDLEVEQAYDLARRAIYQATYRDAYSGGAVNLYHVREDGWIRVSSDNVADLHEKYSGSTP
SMILES,target,test,system,setting,how to read,quantity,value
CC[C@H](C)[C@@H]1NC(=O)[C@H](Cc2ccc(O)cc2)NC(=O)[C@@H](N)Cn2cc(nn2)CCCC[C@@H](C(=O)N2CCC[C@H]2C(=O)N[C@@H](CC(C)C)C(=O)NCC(N)=O)NC(=O)[C@H](CC(N)=O)NC(=O)[C@H](CCC(N)=O)NC1=O,"Oxytocin receptor (OXTR, Homo sapiens, UniProt P30559)","inositol phosphate, agonist",HEK293,,,Emax,32.6%
COC(=O)CCSc1nc2n(n1)C(c1cccc(OC)c1)C(C(=O)Nc1cncc(C)c1)=C(C)N2 (centres unmarked),"Serine/threonine-protein kinase mTOR (MTOR, Homo sapiens, UniProt P42345)","enzyme activity, inhibitor, TR-FRET",,1 µM,,inhibition,94.3%
C=C1CCN2C(=O)COc3cccc(c3)C(CCc3ccc(OC)c(OC)c3)OC(=O)C3CCCCN3C(=O)C(=O)C(C)(C)COC(=O)C(C(F)(F)F)NC(=O)C2C1 (centres unmarked),"FKBP1A/MAPRE1 (Homo sapiens, UniProt P62942+Q15691)","FKBP12-MAPRE1 proximity, TR-FRET",,,reference: DMSO,Emax,27%
O=C(COc1ccccc1)N[C@@H](Cc1cn(CCNC(=O)c2ccc(S[C@@H]3O[C@H](CO)[C@H](O)[C@H](O)[C@H]3O)cc2)nn1)C(=O)NCCO,"PA-I galactophilic lectin (lecA, Pseudomonas aeruginosa, UniProt Q05097)",isothermal titration calorimetry,,concentration not given,,binding stoichiometry,1 ± 0.1
C=C(NC(=O)C(=C)NC(=O)c1csc(C2=NC3c4csc(n4)C4NC(=O)c5csc(n5)C(C(C)(O)C(C)O)NC(=O)C5CSC(=N5)C(=CC)NC(=O)C(C(C)O)NC(=O)c5csc(n5)C3(CC2)NC(=O)C(CCC(N)=O)NC(=O)C(=C)NC(=O)C(C)NC(=O)C(C(C)CC)NC2C=Cc3c(C(C)O)cc(nc3C2O)C(=O)OC4C)n1)C(N)=O (centres unmarked),"Proteasome Macropain subunit MB1 (PSMB5, Homo sapiens, UniProt P28074)","chymotrypsin-like activity, inhibitor",,together with: Suc-Leu-Leu-Val-Tyr-AMC,reference: thiostrepton A,fold loss of potency,4 fold
CC(=O)N[C@@H](CC(C)C)C(=O)N[C@@H](CO)C(=O)N[C@@H](CC(=O)O)C(=O)N[C@@H](CO)C(=O)N1CCC[C@H]1C(=O)N[C@@H](CC(N)=O)C(=O)NCC(=O)N1CCC[C@H]1C(=O)N[C@@H](Cc1c[nH]c2ccccc12)C(=O)N[C@H](C(=O)N[C@@H](Cc1c[nH]c2ccccc12)C(=O)N[C@H](C(=O)N1CCC[C@H]1C(=O)N[C@@H](C)C(=O)N[C@@H](Cc1ccccc1)C(=O)N[C@@H](CO)C(=O)N[C@@H](CCC(N)=O)C(=O)N[C@@H](C)C(=O)N[C@H](C(=O)NCC(=O)O)C(C)C)C(C)C)C(C)C,HIV-1 gp120 HxBc2,,,"5 µM, immobilised biotinylated peptide",,binding,no binding
NC[C@@H]1O[C@H](O[C@H]2[C@@H](O)[C@H](O[C@@H]3[C@@H](O)[C@H](N)C[C@H](N)[C@H]3O[C@H]3O[C@H](CN)[C@@H](O)[C@H](O)[C@H]3N)O[C@@H]2CO)[C@H](N)[C@@H](O)[C@@H]1O,poly(dA)·2poly(dT) triplex,ITC,,"concentration not given, pH 5.5, 20 °C, KCl 140 mM",,binding enthalpy,-1.31 ± 0.02 kcal/mol
CC[C@H](C)[C@H](NC(C)=O)C(=O)N[C@H]1CSSC[C@@H](C(=O)N[C@H](C(N)=O)[C@@H](C)O)NC(=O)[C@H](CCCNC(=N)N)NC(=O)[C@H](Cc2c[nH]cn2)NC(=O)[C@@H]2CCCN2C(=O)CNC(=O)[C@H](Cc2c[nH]c3ccccc23)NC(=O)[C@H](CC(=O)O)NC(=O)[C@H](CCC(N)=O)NC(=O)[C@H](Cc2cn(C)c3ccccc23)NC(=O)[C@H](C(C)C)NC1=O,"Complement C3 (Homo sapiens, UniProt P01024)",ITC,,"pH 7.4, 25 °C",,−TΔS,5.2 kcal/mol
COc1ccc(CCCN[C@H]2CCC[C@@H]2CN[C@@H]2CCC[C@H]2CNCCCCN[C@H]2CCC[C@@H]2CN)cc1,"Lysine-specific histone demethylase 2 (KDM1B, Homo sapiens, UniProt Q8NB78)",peroxidase-coupled,,,reference: Ki for KDM1B over Ki for LSD1,selectivity ratio,2.8
O=C(CCl)N(CCNC(=O)C(F)(F)F)c1ccc(Cl)cc1,"Glutathione S-transferase omega-1 (GSTO1, Homo sapiens, UniProt P78417)","probe labelling, gel-based competitive ABPP",MDA-MB-435 soluble proteome,"100 nM, together with: SE-Rh probe",,inhibition,95%
O=C(O)[C@H]1O[C@@H](O[C@H]2C=Cc3c(cc4ccc5cccc6c7ccccc7c3c4c56)[C@@H]2O)[C@H](O)[C@@H](O)[C@@H]1O,"UDP-glucuronosyltransferase 2B7 (UGT2B7, Homo sapiens, UniProt P16662)","glucuronidation, substrate",UGT-expressing HEK293 homogenate,normalized to UGT expression,,kcat/Km,< 0.0167 M⁻¹ s⁻¹

# For quick reference, copied from above:
SMILES,target,test,system,setting,how to read,quantity,value
CC[C@H](C)[C@@H]1NC(=O)[C@H](Cc2ccc(O)cc2)NC(=O)[C@@H](N)Cn2cc(nn2)CCCC[C@@H](C(=O)N2CCC[C@H]2C(=O)N[C@@H](CC(C)C)C(=O)NCC(N)=O)NC(=O)[C@H](CC(N)=O)NC(=O)[C@H](CCC(N)=O)NC1=O,"Oxytocin receptor (OXTR, Homo sapiens, UniProt P30559)","inositol phosphate, agonist",HEK293,,,Emax,32.6%
